Experimental data of several laboratories.
Each line is one published result; not all experiments were run side by side. Several values in a cell are separate wells, animals, samples, runs or records. Numbers after ± are the reported error.
Chymotrypsinogen A: Chymotrypsinogen A (Bos taurus, UniProt P00766)
SIGMAR1: Sigma non-opioid intracellular receptor 1 (SIGMAR1, Homo sapiens, UniProt Q99720)
Chain of UniProt Q99720 (whole entry, looked up): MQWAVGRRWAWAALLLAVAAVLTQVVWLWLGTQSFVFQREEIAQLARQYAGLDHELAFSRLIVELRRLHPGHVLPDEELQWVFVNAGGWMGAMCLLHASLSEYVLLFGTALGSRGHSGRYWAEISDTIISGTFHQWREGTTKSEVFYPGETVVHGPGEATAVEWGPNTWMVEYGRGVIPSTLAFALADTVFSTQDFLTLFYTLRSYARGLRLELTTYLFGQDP
SLC6A3: Sodium-dependent dopamine transporter (SLC6A3, Homo sapiens, UniProt Q01959)
Chain of UniProt Q01959 (whole entry, looked up): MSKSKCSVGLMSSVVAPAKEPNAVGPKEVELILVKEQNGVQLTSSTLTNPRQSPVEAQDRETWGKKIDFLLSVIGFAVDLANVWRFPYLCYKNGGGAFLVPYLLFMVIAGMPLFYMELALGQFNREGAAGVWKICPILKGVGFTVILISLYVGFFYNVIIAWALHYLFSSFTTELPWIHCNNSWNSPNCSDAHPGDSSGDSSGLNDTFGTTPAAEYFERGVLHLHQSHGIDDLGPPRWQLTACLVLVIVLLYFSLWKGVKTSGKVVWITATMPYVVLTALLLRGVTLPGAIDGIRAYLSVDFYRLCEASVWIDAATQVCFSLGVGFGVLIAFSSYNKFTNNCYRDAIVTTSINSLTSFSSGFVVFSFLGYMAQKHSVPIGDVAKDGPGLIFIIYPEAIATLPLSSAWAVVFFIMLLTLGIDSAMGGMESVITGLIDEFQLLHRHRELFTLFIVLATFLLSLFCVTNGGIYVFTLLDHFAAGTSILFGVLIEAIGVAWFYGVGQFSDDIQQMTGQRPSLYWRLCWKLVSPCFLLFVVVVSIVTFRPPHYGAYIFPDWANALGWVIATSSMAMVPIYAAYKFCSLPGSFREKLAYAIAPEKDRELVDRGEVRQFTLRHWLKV
ache: Acetylcholinesterase (ache, Electrophorus electricus, UniProt O42275)
Chain of UniProt O42275 (whole entry, looked up): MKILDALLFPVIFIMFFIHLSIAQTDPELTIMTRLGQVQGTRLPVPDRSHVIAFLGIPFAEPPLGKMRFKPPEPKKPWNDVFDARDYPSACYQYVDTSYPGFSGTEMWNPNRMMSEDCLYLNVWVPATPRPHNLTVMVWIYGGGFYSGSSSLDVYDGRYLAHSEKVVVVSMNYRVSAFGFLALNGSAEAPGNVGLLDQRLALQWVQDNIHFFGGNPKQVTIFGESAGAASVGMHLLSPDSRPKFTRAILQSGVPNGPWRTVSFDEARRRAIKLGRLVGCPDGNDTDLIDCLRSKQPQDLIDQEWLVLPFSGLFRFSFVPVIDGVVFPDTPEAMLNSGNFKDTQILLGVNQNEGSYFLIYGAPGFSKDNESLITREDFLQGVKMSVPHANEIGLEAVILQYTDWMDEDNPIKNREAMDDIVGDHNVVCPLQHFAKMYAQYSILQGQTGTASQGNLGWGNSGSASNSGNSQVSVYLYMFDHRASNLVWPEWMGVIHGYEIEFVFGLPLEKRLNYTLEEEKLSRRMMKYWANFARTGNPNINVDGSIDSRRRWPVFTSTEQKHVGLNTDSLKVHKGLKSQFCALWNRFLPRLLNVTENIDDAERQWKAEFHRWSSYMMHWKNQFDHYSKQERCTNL
CARM1: Histone-arginine methyltransferase CARM1 (CARM1, Homo sapiens, UniProt Q86X55)
Chain of UniProt Q86X55 (whole entry, looked up): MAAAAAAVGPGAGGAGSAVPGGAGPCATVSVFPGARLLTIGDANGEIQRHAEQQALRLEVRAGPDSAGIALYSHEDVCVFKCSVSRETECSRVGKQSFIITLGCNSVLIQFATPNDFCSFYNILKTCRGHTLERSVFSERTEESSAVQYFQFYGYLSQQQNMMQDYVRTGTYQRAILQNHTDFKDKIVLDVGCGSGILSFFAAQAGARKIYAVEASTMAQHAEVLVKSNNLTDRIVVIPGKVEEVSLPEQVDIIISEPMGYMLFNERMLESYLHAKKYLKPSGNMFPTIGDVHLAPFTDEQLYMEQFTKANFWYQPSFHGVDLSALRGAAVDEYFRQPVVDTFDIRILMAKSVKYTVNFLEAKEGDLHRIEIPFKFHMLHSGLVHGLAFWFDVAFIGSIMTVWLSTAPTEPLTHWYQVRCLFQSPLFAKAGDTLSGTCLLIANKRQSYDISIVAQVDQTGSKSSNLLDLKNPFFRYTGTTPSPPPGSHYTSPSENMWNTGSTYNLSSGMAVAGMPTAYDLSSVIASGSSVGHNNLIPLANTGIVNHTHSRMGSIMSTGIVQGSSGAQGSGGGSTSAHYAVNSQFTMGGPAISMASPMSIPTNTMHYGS
OPRK1: Kappa-type opioid receptor (OPRK1, Homo sapiens, UniProt P41145)
Chain of UniProt P41145 (whole entry, looked up): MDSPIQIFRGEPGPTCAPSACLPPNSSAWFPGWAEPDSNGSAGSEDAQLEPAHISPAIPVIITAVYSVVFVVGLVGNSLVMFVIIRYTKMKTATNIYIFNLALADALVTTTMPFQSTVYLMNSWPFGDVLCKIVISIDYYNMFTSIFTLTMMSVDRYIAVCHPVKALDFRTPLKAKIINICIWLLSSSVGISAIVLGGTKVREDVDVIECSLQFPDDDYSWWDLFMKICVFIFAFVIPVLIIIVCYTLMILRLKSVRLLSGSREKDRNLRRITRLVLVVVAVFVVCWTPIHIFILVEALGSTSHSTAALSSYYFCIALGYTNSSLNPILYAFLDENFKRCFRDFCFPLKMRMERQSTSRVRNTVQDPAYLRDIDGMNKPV
Chain of UniProt P34972 (whole entry, looked up): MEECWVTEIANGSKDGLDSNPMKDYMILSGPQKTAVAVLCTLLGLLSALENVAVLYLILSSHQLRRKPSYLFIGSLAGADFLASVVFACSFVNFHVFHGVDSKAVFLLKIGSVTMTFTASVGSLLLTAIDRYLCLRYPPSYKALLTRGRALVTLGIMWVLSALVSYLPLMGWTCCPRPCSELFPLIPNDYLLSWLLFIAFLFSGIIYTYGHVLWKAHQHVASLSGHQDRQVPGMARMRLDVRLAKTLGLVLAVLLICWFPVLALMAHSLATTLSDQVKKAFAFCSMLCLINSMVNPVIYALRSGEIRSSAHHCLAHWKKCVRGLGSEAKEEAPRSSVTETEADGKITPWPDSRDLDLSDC
Chain of UniProt P00811 (whole entry, looked up): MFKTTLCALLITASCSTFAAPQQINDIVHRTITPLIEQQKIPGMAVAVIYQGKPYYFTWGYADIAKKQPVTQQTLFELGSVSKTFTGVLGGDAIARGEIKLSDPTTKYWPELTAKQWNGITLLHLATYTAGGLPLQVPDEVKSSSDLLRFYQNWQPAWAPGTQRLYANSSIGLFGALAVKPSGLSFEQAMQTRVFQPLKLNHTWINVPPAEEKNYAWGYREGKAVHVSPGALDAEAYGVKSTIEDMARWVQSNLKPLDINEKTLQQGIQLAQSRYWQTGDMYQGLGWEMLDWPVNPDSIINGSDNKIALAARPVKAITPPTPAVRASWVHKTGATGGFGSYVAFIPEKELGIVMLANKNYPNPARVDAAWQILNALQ
Chain of UniProt Q6DWJ6 (whole entry, looked up): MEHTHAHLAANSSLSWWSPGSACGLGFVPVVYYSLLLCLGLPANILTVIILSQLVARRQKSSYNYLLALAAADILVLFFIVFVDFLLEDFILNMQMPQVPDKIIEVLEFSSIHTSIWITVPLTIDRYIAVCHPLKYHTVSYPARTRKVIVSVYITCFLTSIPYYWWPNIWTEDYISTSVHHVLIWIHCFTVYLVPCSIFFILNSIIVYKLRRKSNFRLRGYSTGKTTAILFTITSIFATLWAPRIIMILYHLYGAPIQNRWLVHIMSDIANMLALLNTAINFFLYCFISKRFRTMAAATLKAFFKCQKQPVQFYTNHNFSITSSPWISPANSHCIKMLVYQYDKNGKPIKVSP
Chain of UniProt P41143 (whole entry, unmodified, looked up): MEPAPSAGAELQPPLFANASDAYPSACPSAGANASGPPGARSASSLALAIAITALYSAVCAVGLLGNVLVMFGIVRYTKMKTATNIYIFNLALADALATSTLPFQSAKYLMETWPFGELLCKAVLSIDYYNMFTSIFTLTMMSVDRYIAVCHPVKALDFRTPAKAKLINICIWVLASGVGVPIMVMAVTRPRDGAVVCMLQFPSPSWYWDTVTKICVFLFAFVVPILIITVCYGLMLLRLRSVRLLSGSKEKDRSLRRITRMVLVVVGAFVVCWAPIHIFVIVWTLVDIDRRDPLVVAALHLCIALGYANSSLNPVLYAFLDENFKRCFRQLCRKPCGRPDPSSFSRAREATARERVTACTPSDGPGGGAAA
Chain of UniProt O95665 (whole entry, looked up): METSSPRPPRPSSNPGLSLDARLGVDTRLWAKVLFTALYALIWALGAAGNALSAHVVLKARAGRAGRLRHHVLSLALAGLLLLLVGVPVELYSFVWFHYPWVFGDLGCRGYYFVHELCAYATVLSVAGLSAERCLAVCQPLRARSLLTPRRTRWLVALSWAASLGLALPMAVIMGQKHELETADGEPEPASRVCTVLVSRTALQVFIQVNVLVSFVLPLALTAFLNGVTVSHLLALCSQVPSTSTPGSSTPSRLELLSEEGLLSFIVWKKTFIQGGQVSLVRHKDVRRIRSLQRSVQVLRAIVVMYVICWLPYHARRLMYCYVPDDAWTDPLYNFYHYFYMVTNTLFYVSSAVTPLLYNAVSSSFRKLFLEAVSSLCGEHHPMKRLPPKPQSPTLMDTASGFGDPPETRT
Chain of UniProt P23811 (whole entry, looked up): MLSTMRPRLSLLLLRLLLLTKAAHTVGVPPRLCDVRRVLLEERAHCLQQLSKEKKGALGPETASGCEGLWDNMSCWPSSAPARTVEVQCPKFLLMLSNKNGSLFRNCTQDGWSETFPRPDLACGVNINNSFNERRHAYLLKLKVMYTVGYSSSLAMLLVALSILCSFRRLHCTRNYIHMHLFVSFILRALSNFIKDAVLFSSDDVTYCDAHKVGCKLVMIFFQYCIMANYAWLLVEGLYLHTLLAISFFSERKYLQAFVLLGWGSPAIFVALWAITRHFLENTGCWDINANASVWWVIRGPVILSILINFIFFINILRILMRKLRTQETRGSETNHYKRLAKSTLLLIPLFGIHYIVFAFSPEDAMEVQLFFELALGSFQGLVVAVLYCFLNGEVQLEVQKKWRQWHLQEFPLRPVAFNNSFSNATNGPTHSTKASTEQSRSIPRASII

CC(=O)c1ccc(/N=N/c2cccc([B-](F)(F)F)c2)cc1  Ki (Chymotrypsinogen A; enzyme activity, inhibitor; pH 7.81, 25 °C, cis-enriched photostationary state, with: Suc-AAPF-AMC): 292 µM
N[C@H]1CCOC1=O  Ki (CA9 (Homo sapiens, UniProt Q16790); CO2 hydration activity, inhibitor, stopped-flow CO2 hydration; room temperature preincubation): > 100 µM
Cc1cc(O)cc(C)c1C[C@H](N)C(=O)N[C@H](CCCNC(=N)N)C(=O)N[C@@H](Cc1ccccc1)C(=O)N(C)CC(=O)N(C)Cc1cc(C(F)(F)F)cc(C(F)(F)F)c1  Ki (OPRD1 (Homo sapiens, UniProt P41143, Y129F)): 0.0348 µM
C[C@]12COc3ccc(OCc4ccccc4Cl)cc3[C@H]1CCN2  Ki (SIGMAR1; cell-free assay, radioligand): 0.0014 µM
CC(C)c1ccccc1/N=N/c1cccc([B-](F)(F)F)c1  Ki (Chymotrypsinogen A; enzyme activity, competitive inhibitor; buffer with 2 vol% DMSO; pH 7.81, 25 °C, thermally adapted trans state, with: Suc-AAPF-AMC): 103 µM
Cc1ccc(OC2CN(C)C2)cc1C(=O)N[C@H](C)c1cc(-c2cnn(C)c2)nc2ccccc12  viability (Vero E6; 125 µM): 2.97% and 1.98% and 3.63%
COC(=O)[C@H]1[C@@H](c2ccc(Cl)c(Cl)c2)C[C@@H]2CC[C@H]1N2CCCCCc1ccc2cc3ccccc3cc2c1  Ki (SLC6A3; ligand displacement, radioligand; pH 7.4): 0.014 µM
CC(C)(C)c1cc(B(O)O)cc(C(C)(C)C)c1  Ki (Beta-lactamase (ampC, Escherichia coli K-12, UniProt P00811); enzyme activity, inhibitor, absorbance; with: CENTA substrate): 3.21 µM
O=C1NC2(CC2)COc2ncc(F)cc2[C@H]2COCCN2c2ccn3ncc1c3n2  organ-to-body weight ratio (Sprague-Dawley rat, female, kidneys; oral, 20 mg/kg/day, 4 weeks dosing, end of recovery): 0.728 ± 0.077%
CN(C)[C@H](CNC(=O)/C=C/c1cccc2ccccc12)Cc1ccc(O)cc1  Ki (CHRM3 (Homo sapiens, UniProt P20309)): 15 ± 14 µM
O=S(=O)(N/N=C/c1ccc(OS(=O)(=O)c2ccc(Cl)cc2)cc1)c1cc(Cl)ccc1Cl  Ki (ache; enzyme activity, inhibitor, Ellman): 0.0317 µM
COc1cc2c(cc1O)C(CCc1ccc(Cl)cc1)N(C)CC2 (stereo not drawn)  Ki (HTR7 (Homo sapiens, UniProt P34969); cell-free assay, radioligand): 1.7 µM
Fc1cccc(F)c1/N=N/c1cccc([B-](F)(F)F)c1  Ki (Chymotrypsinogen A; enzyme activity, inhibitor; pH 7.81, 25 °C, cis-enriched photostationary state, with: Suc-AAPF-AMC): 65.9 µM
CC(C)C[C@H](NC(=O)[C@H](CCCCN)NC(=O)[C@H](CCCCN)NC(=O)Cc1cccc(CNC(=O)[C@@H](C)NC(=N)N)c1)B(O)O  Ki (Neutrophil elastase (ELANE, Homo sapiens, UniProt P08246); enzyme activity, inhibitor, fluorescence): ~1 µM
Cc1ccc(OC[C@@H]2CCN2C)cc1C(=O)N[C@H](C)c1cc(-c2cnn(C)c2)nc2ccccc12  viability (African green monkey cells; 62.5 µM): 91.1%
Cc1cc(C)cc(/N=N/c2cccc([B-](F)(F)F)c2)c1  Ki (Chymotrypsinogen A; enzyme activity, inhibitor; pH 7.81, 25 °C, cis-enriched photostationary state, with: Suc-AAPF-AMC): 199 µM and 200 µM
COC(=O)[C@H]1[C@@H](c2ccc(Cl)cc2)C[C@@H]2CC[C@H]1N2CCCc1ccc2cc3ccccc3cc2c1  Ki (SLC6A3; binding; COS-7 cells transfected; with: [3H]WIN35,428; deprotonated form): 4.8e-05 µM
CC(=O)NCCCC[C@H](NC(=O)[C@H](CCCNC(=N)NCCC[C@H]1O[C@@H](n2cnc3c(N)ncnc32)[C@H](O)[C@@H]1O)NC(=O)[C@@H]1CCCN1C(C)=O)C(=O)N[C@@H](CCC(N)=O)C(N)=O (relative stereo)  Ki (CARM1; enzyme activity, inhibitor): 0.32 µM
O=S(=O)(N/N=C/c1ccc(OS(=O)(=O)c2ccc(Cl)cc2)cc1)c1ccc(Cl)cc1  Ki (ache; enzyme activity, inhibitor, Ellman): 0.0362 µM
CCCCCn1ccc(C(=O)NC(C)(C)c2ccc(NC(C)=O)cc2)n1  Ki (CNR2 (Homo sapiens, UniProt P34972); ligand displacement, radioligand): 1.75 µM
CC(C)C[C@H](NC(=O)CNC(=O)[C@H](CCC(N)=O)NC(=O)[C@H](CC(C)C)NC(=O)[C@H](CC(C)C)NC(=O)[C@H](CCCNC(=N)N)NC(=O)[C@H](CCC(N)=O)NC(=O)[C@H](CC(C)C)NC(=O)[C@H](CCCNC(=N)N)NC(=O)[C@H](C)NC(=O)[C@H](CO)NC(=O)[C@H](CC(=O)O)NC(=O)[C@H](CCC(N)=O)NC(=O)[C@H](CC(C)C)NC(=O)[C@H](CCCNC(=N)N)NC(=O)[C@H](CO)NC(=O)[C@H](Cc1ccc(O)cc1)NC(=O)[C@H](CCC(=O)O)NC(=O)[C@H](Cc1ccc(C(=O)c2ccccc2)cc1)NC(=O)[C@@H](NC(=O)[C@H](Cc1ccccc1)NC(=O)[C@@H](NC(=O)CNC(=O)[C@H](CC(=O)O)NC(=O)[C@H](CO)NC(=O)[C@@H](N)Cc1c[nH]cn1)[C@@H](C)O)[C@@H](C)O)C(=O)N[C@H](C(N)=O)C(C)C  Ki (Sctr (Rattus norvegicus, UniProt P23811); ligand displacement in cells, radioligand): > 1 µM
O=S(=O)(N/N=C/c1ccc(OS(=O)(=O)c2ccccc2)cc1)c1ccc(Cl)cc1  Ki (ache; enzyme activity, inhibitor, Ellman): 0.042 µM
F[B-](F)(F)c1ccc(/N=N/c2ccccc2)cc1  Ki (Chymotrypsinogen A; enzyme activity, competitive inhibitor; buffer with 2 vol% DMSO; pH 7.81, 25 °C, thermally adapted trans state, with: Suc-AAPF-AMC): 234 µM
O=C(Cc1ccc(Cl)cc1)N1CCN[C@@H]2COC[C@H](N3CCCC3)[C@H]21 (relative stereo)  Ki (OPRK1; cell-free assay): 0.34 µM
CC[C@H](C)[C@H](NC(=O)[C@H](CCCNC(=N)N)NC(=O)[C@H](CCCNC(=N)N)NC(=O)[C@H](CC(C)C)NC(=O)[C@H](Cc1ccccc1)NC(=O)CNC(=O)CN)C(=O)N[C@@H](CCCNC(=N)N)C(=O)N1CCC[C@H]1C(=O)N[C@@H](CCCCN)C(=O)N[C@@H](CC(C)C)C(=O)N[C@@H](CCCCN)C(=O)N[C@@H](Cc1c[nH]c2ccccc12)C(=O)N[C@@H](CC(=O)O)C(=O)N[C@@H](CC(N)=O)C(=O)N[C@@H](CCC(N)=O)C(=O)O  Ki (GPR139 (Homo sapiens, UniProt Q6DWJ6); ligand displacement, radioligand; cell membranes): 0.0122 µM
O=C1c2ccccc2CCCN1CCCCN1CCN(c2cccc(Cl)c2Cl)CC1  Ki (HTR3A (Homo sapiens, UniProt P46098); ligand displacement, radioligand): 0.677 µM
F[B-](F)(F)c1cccc(/N=N/c2ccccc2)c1  Ki (Chymotrypsinogen A; enzyme activity, competitive inhibitor; buffer with 2 vol% DMSO; pH 7.81, 25 °C, thermally adapted trans state, with: Suc-AAPF-AMC): 3.06 µM and 3.1 µM
O=C(Cc1ccc(Cl)c(Cl)c1)N1CCN[C@@H]2COC[C@H](N3CCCC3)[C@H]21 (relative stereo)  Ki (OPRK1; cell-free assay): 0.052 µM
COC(=O)[C@H]1[C@@H](c2ccc(Cl)c(Cl)c2)C[C@@H]2CC[C@H]1N2CCOc1c2ccccc2cc2ccccc12  Ki (SLC6A3; ligand displacement, radioligand; pH 7.4): 0.0083 µM
CCC[C@@H](C(=O)c1ccccc1)N1CCCC1  Ki (SLC6A3; dopamine uptake, inhibitor; HEK293 transiently transfected; DAT S149A mutant, with: [3H]dopamine): 0.012 µM
C[C@@H](Cc1ccsc1)NC(=O)NC[C@H](Cc1ccc(O)cc1)N(C)C  Ki (NTSR2 (Homo sapiens, UniProt O95665)): > 50 µM
Cc1c(/N=N/c2ccccc2)cccc1[B-](F)(F)F  Ki (Chymotrypsinogen A; enzyme activity, competitive inhibitor; buffer with 2 vol% DMSO; pH 7.81, 25 °C, thermally adapted trans state, with: Suc-AAPF-AMC): 138 µM
C[C@@H](Oc1ccc2c(c1)[C@H]1CCN[C@@]1(C)CO2)c1ccccc1  Ki (SIGMAR1; cell-free assay, radioligand): 0.0019 µM
CCCCc1ccc(/N=N/c2cccc([B-](F)(F)F)c2)cc1  Ki (Chymotrypsinogen A; enzyme activity, inhibitor; pH 7.81, 25 °C, cis-enriched photostationary state, with: Suc-AAPF-AMC): > 2000 µM
O=c1ccn([C@@H]2O[C@H](CO[P@](O)(=S)OP(=O)(O)OP(=O)(O)O)[C@@H](O)[C@H]2O)c(=S)[nH]1  Ki (ENPP1 (Homo sapiens, UniProt P22413); enzyme activity, inhibitor): 0.109 µM
O=C(Cc1cccc(Cl)c1)N1CCN[C@@H]2COC[C@H](N3CCCC3)[C@H]21 (relative stereo)  Ki (OPRK1; cell-free assay): 0.43 µM
COC(=O)[C@H]1[C@@H](c2ccc(Cl)c(Cl)c2)C[C@@H]2CC[C@H]1N2Cc1c2ccccc2c(Cl)c2ccccc12  Ki (SLC6A3; ligand displacement, radioligand; pH 7.4): 0.57 µM
CC(=O)NCCCC[C@H](NC(=O)[C@H](CCCNC(=N)NCCC[C@H]1O[C@@H](n2cnc3c(N)ncnc32)[C@H](O)[C@@H]1O)NC(=O)[C@@H]1CCCN1C(=O)[C@H](C)NC(C)=O)C(=O)N[C@@H](CCC(N)=O)C(=O)N[C@@H](CC(C)C)C(N)=O (relative stereo)  Ki (CARM1; enzyme activity, inhibitor): 0.001 µM
CCOC(=O)C(CC)(CC)NC(=O)c1ccc(C2CC2)c(Cc2ccc(F)cc2)n1  Ki (Cnr1 (Mus musculus, UniProt P47746); ligand displacement, radioligand; cell membranes): 0.0085 µM

Some of these lines once more:
CC[C@H](C)[C@H](NC(=O)[C@H](CCCNC(=N)N)NC(=O)[C@H](CCCNC(=N)N)NC(=O)[C@H](CC(C)C)NC(=O)[C@H](Cc1ccccc1)NC(=O)CNC(=O)CN)C(=O)N[C@@H](CCCNC(=N)N)C(=O)N1CCC[C@H]1C(=O)N[C@@H](CCCCN)C(=O)N[C@@H](CC(C)C)C(=O)N[C@@H](CCCCN)C(=O)N[C@@H](Cc1c[nH]c2ccccc12)C(=O)N[C@@H](CC(=O)O)C(=O)N[C@@H](CC(N)=O)C(=O)N[C@@H](CCC(N)=O)C(=O)O  Ki (GPR139 (Homo sapiens, UniProt Q6DWJ6); ligand displacement, radioligand; cell membranes): 0.0122 µM
O=S(=O)(N/N=C/c1ccc(OS(=O)(=O)c2ccc(Cl)cc2)cc1)c1ccc(Cl)cc1  Ki (ache; enzyme activity, inhibitor, Ellman): 0.0362 µM
CCOC(=O)C(CC)(CC)NC(=O)c1ccc(C2CC2)c(Cc2ccc(F)cc2)n1  Ki (Cnr1 (Mus musculus, UniProt P47746); ligand displacement, radioligand; cell membranes): 0.0085 µM
CC(C)C[C@H](NC(=O)CNC(=O)[C@H](CCC(N)=O)NC(=O)[C@H](CC(C)C)NC(=O)[C@H](CC(C)C)NC(=O)[C@H](CCCNC(=N)N)NC(=O)[C@H](CCC(N)=O)NC(=O)[C@H](CC(C)C)NC(=O)[C@H](CCCNC(=N)N)NC(=O)[C@H](C)NC(=O)[C@H](CO)NC(=O)[C@H](CC(=O)O)NC(=O)[C@H](CCC(N)=O)NC(=O)[C@H](CC(C)C)NC(=O)[C@H](CCCNC(=N)N)NC(=O)[C@H](CO)NC(=O)[C@H](Cc1ccc(O)cc1)NC(=O)[C@H](CCC(=O)O)NC(=O)[C@H](Cc1ccc(C(=O)c2ccccc2)cc1)NC(=O)[C@@H](NC(=O)[C@H](Cc1ccccc1)NC(=O)[C@@H](NC(=O)CNC(=O)[C@H](CC(=O)O)NC(=O)[C@H](CO)NC(=O)[C@@H](N)Cc1c[nH]cn1)[C@@H](C)O)[C@@H](C)O)C(=O)N[C@H](C(N)=O)C(C)C  Ki (Sctr (Rattus norvegicus, UniProt P23811); ligand displacement in cells, radioligand): > 1 µM
O=C(Cc1ccc(Cl)cc1)N1CCN[C@@H]2COC[C@H](N3CCCC3)[C@H]21 (relative stereo)  Ki (OPRK1; cell-free assay): 0.34 µM
Cc1cc(C)cc(/N=N/c2cccc([B-](F)(F)F)c2)c1  Ki (Chymotrypsinogen A; enzyme activity, inhibitor; pH 7.81, 25 °C, cis-enriched photostationary state, with: Suc-AAPF-AMC): 199 µM and 200 µM
